Measured values from different studies.
Compare with care: the assays were run in different laboratories. ± marks the error that the study gave.

CO[C@]12CC[C@@]3(C[C@@H]1[C@](C)(O)c1ccccc1)[C@H]1Cc4ccc(O)c5c4[C@@]3(CCN1CC1CC1)[C@H]2O5 — duration of antagonism (antinociception, antagonist, hot-plate test; mice; dose not given, added: morphine and ethylketocyclazocine): ≤ 24 h
Pillar[6]MaxQ — Kd (host-guest binding, isothermal titration calorimetry; 20 mM sodium phosphate buffer; pH 7.4, added: MDMA): 0.0255 µM
NC12CC3CC(CC(C3)C1)C2 — EC50 (Influenza A virus; viral replication, plaque size reduction; MDCK, A/Swine/Indiana/29-0404/2010 (H1N2)): 62.6 ± 5.4 µM
O=C(N[C@H]1CC[C@@]2(O)[C@H]3Cc4ccc(O)c5c4[C@@]2(CCN3CC2CC2)[C@H]1O5)c1cccc2cc[nH]c12 — maximum fentanyl-appropriate responding (drug discrimination substitution; rat; subcutaneous, 32 mg/kg, 30 min pretreatment, trained fentanyl 0.04 mg/kg vs saline): 1.7 ± 1.5%
N=C(N)NCCNC(=O)C1(Nc2ccccc2)CCN(Cc2ccccc2)CC1 — tail-withdrawal latency (warm-water tail withdrawal; mouse; intracerebroventricular, 30 nmol): no effect
Oc1cccc(N2[C@@H]3CC[C@H]2CN(CCCc2ccccc2)C3)c1 — naltrexone ID50 (antinociception reversal; mouse; intraperitoneal, 15 min, added: fentanyl 1 mg/kg ip): 0.408 mg/kg
C[n+]1ccccc1C=NO — protective ratio (reactivator, up-and-down method; mice; baseline: NIMP LD50 untreated): 1.07 fold NIMP LD50
CN1CC[C@]23c4c5ccc(O)c4O[C@H]2[C@@H](O)C=C[C@H]3[C@H]1C5 — maximal body temperature change (C57BL/6J male mice; subcutaneous, dose not given; baseline: baseline): -6 °C
cisplatin — EC100 (survival; zebrafish larvae 6 dpf; 4 h, DMSO solution, added: KCN 100 µM): 125 µM
AEOL 10150 — TNF-α increase (multiplex immunoassay; rat, status epilepticus, piriform cortex; sc, 7 mg/kg every 4 h, 24 h, from 5 min post-SE): decreased

Excerpt of the above:
Pillar[6]MaxQ — Kd (host-guest binding, isothermal titration calorimetry; 20 mM sodium phosphate buffer; pH 7.4, added: MDMA): 0.0255 µM
